Assay results of several laboratories.
Every numbered part comes from another study and shows a few of its results, in no order. Positions count from the first letter of the parent shown.

Block 1
Target: UBE2Q2 UBC core domain (UniProt Q8WVN8)
Sequence of UniProt Q8WVN8 (whole entry, looked up): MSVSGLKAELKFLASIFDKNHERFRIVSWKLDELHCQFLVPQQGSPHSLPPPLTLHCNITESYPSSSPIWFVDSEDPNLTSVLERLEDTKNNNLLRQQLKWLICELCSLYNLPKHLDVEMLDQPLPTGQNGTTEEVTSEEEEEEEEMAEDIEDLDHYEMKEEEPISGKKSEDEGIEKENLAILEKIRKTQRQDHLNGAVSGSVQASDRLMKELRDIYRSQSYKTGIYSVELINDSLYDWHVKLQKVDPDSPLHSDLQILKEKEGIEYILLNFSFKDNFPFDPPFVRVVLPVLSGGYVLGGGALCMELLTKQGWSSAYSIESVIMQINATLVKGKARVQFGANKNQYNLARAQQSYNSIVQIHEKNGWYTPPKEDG
Technique: yeast two-hybrid
Sample: yeast
Setting: mostly zero background
Relative to: not given
Direction: higher = stronger interaction
B1: MSL2 RING domain (UniProt Q9HCI7); chain LLPYFRQSLSCCVCGHLLQDPIAPTNSTCQHYVCKTCKGKKMMMKPSCSWCKDYEQFEENKQ
B2: RNF149 RING domain (UniProt Q8NC42); chain EKGIDVDAENCAVCIENFKVKDIIRILPCKHIFHRICIDPWLLDHRTCPMCKLDVIKALGYW
B3: TRIM35 RING domain (UniProt Q9UPQ4); chain PSRSFKEELLCAVCYDPFRDAVTLRCGHNFCRGCVSRCWEVQVSPTCPVCKDRASPADLRT
| Sequence | lacZ reporter activity |
| --- | --- |
| B1 (MSL2 RING domain) | 0 |
| B2 (RNF149 RING domain) | 0 |
| ISNDSETLEECMVCSDMKRDTLFGPCGHIATCSLCSPRVKKCLICKEQVQSRTKIE (MIB1 RING domain (UniProt Q86YT6)) | 0 |
| MANWVFCNRCFQPPHRTSCFSLTNCGHVYCDACLGKGKKNECLICKAPCRTVLLSK (RNF212 RING domain (UniProt Q495C1)) | 0 |
| FLKKLEQSFMCVCCQELVYQPVTTECFHNVCKDCLQRSFKAQVFSCPACRHDLGQNYIMI (UHRF2 RING domain (UniProt Q96PU4)) | 0 |
| B3 (TRIM35 RING domain) | 0 |

Block 2
Target: Hepatocyte nuclear factor 3-beta, forkhead domain (FOXA2, Homo sapiens, UniProt Q9Y261, residues 142-269)
Technique: protein-binding microarray
Form: double-stranded DNA, one strand shown
Sample: in vitro
Tested at: not given
Setting: k-mer, scored over probes, only values ≥0.25
Direction: higher = stronger binding
Construct (chain): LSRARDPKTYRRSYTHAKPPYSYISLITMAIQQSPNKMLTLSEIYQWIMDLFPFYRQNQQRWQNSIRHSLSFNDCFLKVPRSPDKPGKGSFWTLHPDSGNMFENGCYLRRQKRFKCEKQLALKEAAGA
| Strand | E-score |
| --- | --- |
| TCTTGTAA | 0.28 |
| GTACTATA | 0.348 |
| CTATACTA | 0.296 |
| ACACACAT | 0.406 |
| CACATCTA | 0.285 |
| ATCTACAC | 0.293 |
| AATAACCA | 0.257 |
| GTGTCTAA | 0.256 |
| AAGTGTAC | 0.332 |
| TACTCATA | 0.251 |
| CATACAGA | 0.299 |
| ATGTTTAA | 0.356 |
| GCAAACAA | 0.353 |
| GGCATATA | 0.307 |
| AACAATCG | 0.271 |

Block 3
Target: RING finger protein unkempt homolog, zinc fingers 1-6, GST-SBP tag (UNK, Homo sapiens, UniProt Q9C0B0, residues 30-357)
Sequence of UniProt Q9C0B0 (30-357, looked up): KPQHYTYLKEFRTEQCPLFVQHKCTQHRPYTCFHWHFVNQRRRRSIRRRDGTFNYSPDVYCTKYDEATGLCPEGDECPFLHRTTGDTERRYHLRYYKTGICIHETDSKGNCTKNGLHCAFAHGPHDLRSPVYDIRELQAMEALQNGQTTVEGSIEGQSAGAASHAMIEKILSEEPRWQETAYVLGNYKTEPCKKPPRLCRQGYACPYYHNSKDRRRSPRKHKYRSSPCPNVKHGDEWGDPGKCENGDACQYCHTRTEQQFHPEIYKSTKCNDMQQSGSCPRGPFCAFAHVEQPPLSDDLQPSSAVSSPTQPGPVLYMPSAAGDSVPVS
Technique: RNA Bind-n-Seq
Form: RNA
Sample: in vitro
Tested at: not given
Setting: RNA with constant flanks, human and mouse sites, ends assumed
Relative to: input RNA pool
Direction: higher = stronger binding
Shared flanks, not repeated: GGGAGUUCUACAGUCCGACGAUC … CAACAGAGGAUUGAGCAUCA
| Strand | bound/input enrichment [ratio] |
| --- | --- |
| GGUUUUGUUCCUGGCUUUCAGAAAACCAACGCCAAGAUCCCUCCCAGCGUCCACAUCGUCCUCUGGCAGGAGCUCCUGCCCCUCUGCCUCCCACCCUGCCCCCUACACCCCCUGCAGACC | 0.654 |
| CAAGAAGGUUGUUGCUUGGUUCGUUCCAAAGAUGAAGAAGCAGACAAUGAUAAUUAUGAAGUUUUAUUCAAUUUGGAGGAACUUAAGUUAGACCAGCCCUUCAUUGAUUGUAUCAGAGUU | 0.149 |
| GGACGGGCACAGCUGGCGUGACCACCAUGAGUCUGGGAGCACCUCCCACUAUGUCAAACUUUAGCCCUUUGACUAUUCCUCCUGCUAGCGUGAAGCAGCCUCAACAGAGACCAACCGAUA | 0.229 |
| UUUGCCCUUUCAAACCUUAUUCAGGUUGGGACUCAUUUCUUUCUGGUGGAUCACAGCUACCCAGAUGUGUAGAUUGAUCUCUAUGUUCUAUAGAGAAAUCCUUUUCUUUCAUCUUCAGCA | 0.115 |
| CAGAGAUAAAAAUAAGUAAUCCCACUGAAUUCCAGAAUCAUGAAAAGCAGGAAAGCCAGGAUCUCAGAGCUACUGCAAAAGUUCCUUCUCCACCAGACGAGCACCAAGAAGCUGAGAAUG | 0.248 |
| AAUAAGCCCUGCCCAGUAUGUAGACAACCAAUUCAAAUGAUUGUGCUAACUUAUUUCCCCUAGUUGACCUGUCUAUAAGAGAAUUAUAUAUUUCUAACUAUAUAACCCUAGGAAUUUAGA | 3.49 |

Block 4
Target: Interferon regulatory factor 3, full length, phosphomimetic (IRF3, Homo sapiens, UniProt Q14653, residues 1-427, S386D/S396D/S398D/S402D/T404D/S405D)
Technique: protein-binding microarray
Form: double-stranded DNA, one strand shown
Sample: in vitro
Tested at: 2540 nM top
Setting: 60-bp whole probe
Together with: salmon DNA 0.4 mg/ml
Relative to: random background probes
Direction: higher = stronger binding
Shared flanks, not repeated: GCCTAGCAC … GTCTTGATTCGCTTGACGCTGCTG
Residues (chain): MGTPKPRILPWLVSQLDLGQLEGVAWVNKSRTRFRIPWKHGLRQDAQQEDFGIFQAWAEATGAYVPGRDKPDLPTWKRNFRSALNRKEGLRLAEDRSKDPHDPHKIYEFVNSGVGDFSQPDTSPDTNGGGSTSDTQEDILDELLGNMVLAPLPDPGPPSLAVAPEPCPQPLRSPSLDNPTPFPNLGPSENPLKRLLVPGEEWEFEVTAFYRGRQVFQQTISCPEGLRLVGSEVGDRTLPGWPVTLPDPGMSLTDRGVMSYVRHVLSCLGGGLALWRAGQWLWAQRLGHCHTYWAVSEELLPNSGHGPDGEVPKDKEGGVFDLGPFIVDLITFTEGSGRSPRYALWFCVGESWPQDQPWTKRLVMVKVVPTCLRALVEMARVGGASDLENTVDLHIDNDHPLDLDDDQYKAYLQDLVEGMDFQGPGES
| Strand | fitted relative affinity [z-score] |
| --- | --- |
| ATAGGTTTCGACTATCGGTTAGTGCTA | 2.67 |
| GACGAACTGGGGACGGGAGACGTGCTA | -0.216 |
| CACGGACTGCTTCTCCTGACGTGCTAG | -0.346 |
| GACGGACTGGACACTGGGGATGTGCTA | -0.724 |
| ATTTTGAGGTGGAGAGATAAGTGCTAG | 0.136 |
| GACGGTATCGGTTTCGGGGCGTGCTAG | 6.65 |
| TTAGGGTTCGACACTGGGTTAGTGCTA | -0.399 |
| GACGATCTCAGTTTCGACACGTGCTAG | 2.38 |
| TTCATTTTGTTCATCATTGCGTGCTAG | 0.677 |
| TCATGCTTGCGTCTGGGACTGTGCTAG | -0.827 |
| TTAGGTAGCGGGACTGGGTTAGTGCTA | -0.747 |
| GGTCTTCTGGGCTGTTTGGTCGTGCTA | -0.214 |

Block 5
Target: CCND2, cyclin fold, Cln2 fusion (human)
Technique: yeast growth competition, sequencing
Sample: yeast
Setting: weak parent motif
Relative to: not given
Direction: higher = stronger binding
Parent: PKN2 docking peptide (human); VSAVQKLDFSDTM
| Substitution | normalised enrichment score |
| --- | --- |
| VGAVQKLDFSDTM [S2G] | 0.58 |
| VSAVQKLDFSITM [D11I] | -0.12 |
| VSAVQKLDFMDTM [S10M] | 0.578 |
| VSAVQKLDFPDTM [S10P] | 0.371 |
| VSAVQKLDFSDTW [M13W] | 0.674 |
| VIAVQKLDFSDTM [S2I] | 0.372 |
| VSKVQKLDFSDTM [A3K] | 0.173 |
| VSIVQKLDFSDTM [A3I] | 0.586 |
| VSLVQKLDFSDTM [A3L] | 0.712 |
| GSAVQKLDFSDTM [V1G] | 0.641 |
| VSAVQKLDFSNTM [D11N] | 0.715 |
| VSAVQKLHFSDTM [D8H] | 0.0564 |
| VYAVQKLDFSDTM [S2Y] | 0.802 |
| VSAVQGLDFSDTM [K6G] | 0.15 |

Block 6
Target: Histone acetyltransferase KAT6A, winged helix 2, GST fusion (KAT6A, Homo sapiens, UniProt Q92794, residues 85-181)
Technique: protein binding microarray
Form: double-stranded DNA, one strand shown
Sample: in vitro
Tested at: not given
Setting: 8-mer, flanks averaged, mean of 2 arrays, mostly near background
Relative to: not given
Direction: higher = stronger binding
Construct (chain): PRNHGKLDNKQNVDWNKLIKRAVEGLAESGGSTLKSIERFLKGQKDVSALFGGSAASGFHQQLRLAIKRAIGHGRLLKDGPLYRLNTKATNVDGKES
| Strand | E-score |
| --- | --- |
| CTCGACGA | -0.0462 |
| CAAAGCCC | 0.0556 |
| AGGCATGC | 0.0692 |
| CAAATGAC | -0.115 |
| CAGATCAC | -0.0297 |
| CTAATACC | -0.0325 |
| GAGAGTCC | -0.22 |
| CTGCTGTA | 0.12 |
| AAACCCGG | 0.169 |
| GTAAGTTA | -0.0238 |
| GAATGAGC | -0.121 |
| AGCTGCTG | 0.119 |
| AGCTTCAC | -0.0646 |
| GCGCCAAC | 0.103 |
| ACAGGATC | -0.114 |

Block 7
Target: ABI1, truncated, D143A, DHFR fusion (Arabidopsis thaliana)
Technique: DHFR PCA, deep sequencing
Sample: yeast
Setting: methotrexate growth selection, single substitutions
Together with: (+)-ABA 1.4 µM
Relative to: wild-type fitted maximum
Direction: higher = stronger binding
Parent: PYL1, truncated, DHFR fusion (Arabidopsis thaliana); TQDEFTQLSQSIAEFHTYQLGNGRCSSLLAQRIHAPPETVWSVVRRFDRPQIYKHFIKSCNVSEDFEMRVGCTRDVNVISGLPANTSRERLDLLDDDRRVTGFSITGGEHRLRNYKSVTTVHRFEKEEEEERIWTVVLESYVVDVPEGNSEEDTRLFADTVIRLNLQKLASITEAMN; partner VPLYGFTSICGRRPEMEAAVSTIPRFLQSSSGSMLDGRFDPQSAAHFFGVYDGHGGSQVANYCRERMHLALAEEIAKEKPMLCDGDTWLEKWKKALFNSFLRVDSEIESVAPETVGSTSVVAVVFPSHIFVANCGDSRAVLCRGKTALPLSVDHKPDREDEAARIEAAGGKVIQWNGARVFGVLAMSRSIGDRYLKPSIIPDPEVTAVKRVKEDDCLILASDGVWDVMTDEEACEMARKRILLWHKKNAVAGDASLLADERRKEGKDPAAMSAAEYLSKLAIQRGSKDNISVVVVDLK
| Substitution | relative binding score [%] |
| --- | --- |
| T86N | 77.7 |
| A30F | 53.3 |
| H16N | -12.4 |
| Y18A | 4.88 |
| S150C | 27.6 |
| T1M | 66.7 |
| H122A | -0.937 |
| S26G | 35.6 |
| D96Y | 13 |
| T119N | -2.81 |
| L93F | 37.9 |
| T154C | 22.6 |
